Experimental data of several laboratories.
Compare with care: the assays were run in different laboratories. Several values in a cell are separate wells, animals, samples, runs or records. Numbers after ± are the reported error.

SMILES	cell line	assay	system	conditions	how to read	endpoint	result
O=C(Nc1cc(F)c(F)c(F)c1)c1ccc(F)c(S(=O)(=O)N2CCC(O)CC2)c1	HepAD38	–	–	–	–	CC50	8.12 ± 3.32 µM
NCCCCNCCCN	HCT-8 infected with Cryptosporidium parvum	Hoechst nuclei count	–	1 mM, 24 h	reference: PBS	host cell number	0.982 ± 0.042
CC(=O)Nc1ccc(O)cc1	MDCK	–	–	1 µM, 90 min, pH 6.5 apical, 7.4 basolateral, basolateral to apical	–	mass recovery	89 ± 9%
CC(O)C(=O)O (stereo not shown)	HCT-8 infected with Cryptosporidium parvum	Hoechst nuclei count	–	1 mM, 24 h	reference: PBS	host cell number	0.988 ± 0.077
CCS(=O)(=O)Oc1ccc(C=NNC(=O)c2nc3ccccc3s2)cc1OC	BJ-1 fibroblasts	MTT	–	100 µM, 48 h	–	cytotoxicity	53.2%
Cn1cc(-c2ccc(-c3cncc(Cl)c3N3CCC4(CCNC4=O)CC3)cc2)cn1	COLO 205	gene expression, microarray, item: ELF3 mRNA	–	concentration not given, 2 h	reference: untreated cells	log2 fold change	2.04
CCc1cc(/C(C)=N/OCc2ccc(C3CCCCC3)c(C(F)(F)F)c2)ccc1CN1CC(C(=O)O)C1	MDCK low-efflux	–	–	–	–	Papp (A to B)	14 ×10⁻⁶ cm/s
CC(=O)Nc1cccc(-n2c(=O)n(C3CC3)c(=O)c3c(Nc4ccc(I)cc4F)n(C)c(=O)c(C)c32)c1	MeWo	resazurin	–	concentration not given, 72 h, unit not given	reference: DMSO	viability	0.8 and 0.496 and 0.657 and 0.943 and 0.528 and 0.926
CC(=O)Nc1ccc(O)cc1	THLE-2, 3D culture	MTT	–	100 µM, 72 h	–	viability	61.6%
COc1ccc(C=NNC(=O)c2nc3ccccc3s2)cc1OS(C)(=O)=O	BJ-1 fibroblasts	MTT	–	100 µM, 48 h	–	cytotoxicity	43.5%
C[C@@H]1COCCN1c1nc(-c2cnc(N)s2)nc2c1C[C@@H]1COCCN21	MDCK	–	–	1 µM, 20 (unit not given)	–	Papp A to B	15.5 ×10⁻⁶ cm/s
C[C@@H](c1ncncc1F)[C@](O)(Cn1cncn1)c1ccc(F)cc1F	MDCK	–	–	1 µM, 90 min, pH 6.5 apical, 7.4 basolateral, apical to basolateral	–	mass recovery	101 ± 15%
NCCCCCN	HCT-8 infected with Cryptosporidium parvum	Hoechst nuclei count	–	1 mM, 24 h	reference: PBS	host cell number	1 ± 0.05
CC(C)C[C@H](NC(=O)[C@H](CC(C)C)NC(=O)[C@H](CCCNC(=N)N)NC(=O)[C@H](CCCCN)NC(=O)[C@H](CCCNC(=N)N)NC(=O)[C@H](CC(C)C)NC(=O)[C@H](CCCCN)NC(=O)[C@H](CCCNC(=N)N)NC(=O)[C@H](CC(C)C)NC(=O)[C@H](CC(C)C)NC(=O)[C@H](CC(C)C)NC(=O)[C@H](CCCNC(=N)N)NC(=O)[C@H](CCCCN)NC(=O)[C@H](CCCNC(=N)N)NC(=O)[C@H](CC(C)C)NC(=O)[C@H](CCCCN)NC(=O)[C@H](CCCNC(=N)N)NC(=O)[C@H](CC(C)C)NC(=O)CNC(=O)CNC(=O)CNC(=O)c1ccc2c(c1)C(=O)OC21c2ccc(O)cc2Oc2cc(O)ccc21)C(N)=O	hCMEC/D3 monolayers	BBB permeability, Transwell, item: CF-labelled compound	EGM-2 medium	concentration not given, 2 h, apical to basal	reference: fluorescence added apically	transport ratio	8.3%
Nc1ncnc2nc[nH]c12	HCT-8 infected with Cryptosporidium parvum	Hoechst nuclei count	–	1 mM, 24 h	reference: PBS	host cell number	1.04 ± 0.022
O=C(NCc1cc(O)c(O)c(Br)c1)c1nccs1	Vero-E6	CCK-8	–	24 h	–	CC50	> 800 µM
Cc1noc(C)c1Cn1cc(N2C(=O)CN(Cc3cccc(O)c3)C2=O)cn1	human blood lymphocytes	–	–	400 µg/mL, 21 h	–	aberrant cells with gaps	0.5%
CC(=O)Oc1ccccc1C(=O)O	human iPSC-derived cardiomyocytes	–	–	100 µM	–	beat rate	44.2 ± 1.3 min⁻¹
Cc1ccc(Nc2cnnc3ccc(-c4ccc(N5CCCN(C)CC5)cc4)cc23)cn1	B10R mouse macrophages	cytotoxicity	–	–	–	TC50	> 10 µM

SMILES	cell line	assay	system	conditions	how to read	endpoint	result
CC(C)n1nccc1-c1ncccc1COc1cccc(O)c1C=O	MDCK	–	–	1 µM, 90 min, pH 7.4 apical, 7.4 basolateral, basolateral to apical	–	mass recovery	80 ± 13%
NC(=O)Cc1c[nH]c2ccccc12	HCT-8 infected with Cryptosporidium parvum	Hoechst nuclei count	–	1 mM, 24 h	reference: PBS	host cell number	0.955 ± 0.046
Cc1cnc(Nc2ccc(OCCN3CCCC3)cc2)nc1Nc1cccc(S(=O)(=O)NC(C)(C)C)c1	MDCK	–	–	1 µM, 90 min, pH 6.5 apical, 7.4 basolateral, basolateral to apical	–	mass recovery	78 ± 2%
CCC(=CCc1c(O)cc2c(c1O)C(=O)CC(c1ccc(O)cc1)O2)CC (stereo in doubt)	HeLa	cytotoxicity, MTT	–	48 h, added: S9 fraction	–	log IC50	1.28 log µM
O=C(CS(=O)(=O)O)Nc1ccc(N2CCOCC2)c(Br)c1	MDCK-MDR1	–	–	MDR1 inhibited	–	Papp	0.005 ×10⁻⁶ cm/s
CCn1c(=O)c2c(nc(/C=C/c3ccc(OC)c(OC)c3)n2C)n(CC)c1=O	MDCK	–	–	1 µM, 90 min, pH 6.5 apical, 7.4 basolateral, basolateral to apical	–	Papp	35.8 ×10⁻⁶ cm/s
COc1ccc(S(=O)(=O)ON=C2C=C(C)C(=O)C(C)=C2)cc1	SK-BR-3	cell viability	–	–	–	CC50	11.6 µM
CCCC(CCC)NC(=O)c1ccc2c(c1)OCO2	CHO-WBL	–	–	1.67 mg/mL, 3 h, with rat liver S9	–	cells with aberrations	0%
Cc1ccc(C(=O)O)cc1	HCT-8 infected with Cryptosporidium parvum	Hoechst nuclei count	–	1 mM, 24 h	reference: PBS	host cell number	0.982 ± 0.023
C=C1C(=O)O[C@H]2[C@H]1CC/C(C)=C/CC[C@@]1(C)O[C@@H]21	MYBPC3 iPSC cardiomyocytes	cytotoxicity	–	24 h	–	EC50	60.8 µM
COC(=O)c1cccc(Cn2ccc3ccc(-c4ccc5ccn(Cc6cccc(C(=O)O)c6)c5c4)cc32)c1	MAGI-CCR5 cells	cytotoxicity	–	48 h, 2% serum	–	TC50	25.9 µM
O=C(O)CCc1ccccc1	HCT-8 infected with Cryptosporidium parvum	Hoechst nuclei count	–	1 mM, 24 h	reference: PBS	host cell number	0.878 ± 0.023
O=C(O)c1ccc(NS(=O)(=O)c2ccc(Cl)c(Cl)c2)cc1	RRCK cells	passive permeability	–	–	–	apparent permeability	4 ×10⁻⁶ cm/s
COc1ccc([C@H]2OC[C@H](Cc3ccc(C(C)(C)C)cc3)[C@@H]2CO)cc1OC	HEK293/NF-κB-luc	CellTracker Green CMFDA	–	20 µM, 4.5 h, serum-free medium	reference: stimulated untreated cells	viability	104 ± 5%
O=C(O)CCc1ccc(O)cc1	HCT-8 infected with Cryptosporidium parvum	Hoechst nuclei count	–	1 mM, 24 h	reference: PBS	host cell number	0.873 ± 0.107
Cc1cc(C(=O)NC(C)(C)COc2cccc3c2C(N)=NS(=O)(=O)N3)cc(C)n1	human peripheral blood lymphocytes	in vitro micronucleus test	0.4% DMSO	2000 µg/mL, 4 h	–	micronucleated binucleated cells	0.3%
CN1CCN(c2ccc(-c3ccc4nncc(Nc5ccc(OC(F)(F)F)cc5)c4c3)cc2)CC1	B10R mouse macrophages	cytotoxicity	–	–	–	TC50	3.2 µM
O=C(O)CCCOc1ccc(F)cc1-c1cc(-c2ccccc2C(F)(F)F)n(-c2ccccc2)n1	human iPSC-derived cardiomyocytes	–	–	200 µM	–	beat rate	51.2 ± 1 min⁻¹

A few entries again:
SMILES	cell line	assay	system	conditions	how to read	endpoint	result
Cn1cc(-c2ccc(-c3cncc(Cl)c3N3CCC4(CCNC4=O)CC3)cc2)cn1	COLO 205	gene expression, microarray, item: ELF3 mRNA	–	concentration not given, 2 h	reference: untreated cells	log2 fold change	2.04
Cc1cc(C(=O)NC(C)(C)COc2cccc3c2C(N)=NS(=O)(=O)N3)cc(C)n1	human peripheral blood lymphocytes	in vitro micronucleus test	0.4% DMSO	2000 µg/mL, 4 h	–	micronucleated binucleated cells	0.3%
CCS(=O)(=O)Oc1ccc(C=NNC(=O)c2nc3ccccc3s2)cc1OC	BJ-1 fibroblasts	MTT	–	100 µM, 48 h	–	cytotoxicity	53.2%
C[C@@H]1COCCN1c1nc(-c2cnc(N)s2)nc2c1C[C@@H]1COCCN21	MDCK	–	–	1 µM, 20 (unit not given)	–	Papp A to B	15.5 ×10⁻⁶ cm/s
COC(=O)c1cccc(Cn2ccc3ccc(-c4ccc5ccn(Cc6cccc(C(=O)O)c6)c5c4)cc32)c1	MAGI-CCR5 cells	cytotoxicity	–	48 h, 2% serum	–	TC50	25.9 µM
